Published values from different studies.
Every numbered part comes from another study and shows a few of its results, in no order.
Chain of UniProt P15056 (whole entry, unmodified, looked up): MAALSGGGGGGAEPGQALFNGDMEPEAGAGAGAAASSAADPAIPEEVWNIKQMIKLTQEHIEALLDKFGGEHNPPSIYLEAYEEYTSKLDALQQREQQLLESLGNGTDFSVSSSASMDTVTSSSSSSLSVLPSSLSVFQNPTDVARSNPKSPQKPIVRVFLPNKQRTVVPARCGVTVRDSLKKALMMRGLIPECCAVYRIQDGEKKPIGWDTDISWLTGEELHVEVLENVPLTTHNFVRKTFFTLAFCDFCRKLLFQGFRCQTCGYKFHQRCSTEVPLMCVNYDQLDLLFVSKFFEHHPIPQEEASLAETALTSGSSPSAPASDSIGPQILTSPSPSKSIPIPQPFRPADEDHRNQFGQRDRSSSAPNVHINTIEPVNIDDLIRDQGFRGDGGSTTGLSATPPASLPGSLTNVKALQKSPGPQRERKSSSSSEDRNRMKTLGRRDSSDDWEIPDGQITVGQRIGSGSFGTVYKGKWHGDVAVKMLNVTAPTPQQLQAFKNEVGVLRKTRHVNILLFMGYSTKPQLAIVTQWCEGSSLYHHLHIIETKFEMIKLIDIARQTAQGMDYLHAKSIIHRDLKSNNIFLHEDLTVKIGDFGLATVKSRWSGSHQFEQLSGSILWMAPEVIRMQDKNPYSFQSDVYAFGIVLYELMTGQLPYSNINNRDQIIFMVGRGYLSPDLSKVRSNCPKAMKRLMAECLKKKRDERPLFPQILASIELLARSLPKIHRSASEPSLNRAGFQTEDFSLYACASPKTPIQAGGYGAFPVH
Chain of UniProt P22607 (whole entry, looked up): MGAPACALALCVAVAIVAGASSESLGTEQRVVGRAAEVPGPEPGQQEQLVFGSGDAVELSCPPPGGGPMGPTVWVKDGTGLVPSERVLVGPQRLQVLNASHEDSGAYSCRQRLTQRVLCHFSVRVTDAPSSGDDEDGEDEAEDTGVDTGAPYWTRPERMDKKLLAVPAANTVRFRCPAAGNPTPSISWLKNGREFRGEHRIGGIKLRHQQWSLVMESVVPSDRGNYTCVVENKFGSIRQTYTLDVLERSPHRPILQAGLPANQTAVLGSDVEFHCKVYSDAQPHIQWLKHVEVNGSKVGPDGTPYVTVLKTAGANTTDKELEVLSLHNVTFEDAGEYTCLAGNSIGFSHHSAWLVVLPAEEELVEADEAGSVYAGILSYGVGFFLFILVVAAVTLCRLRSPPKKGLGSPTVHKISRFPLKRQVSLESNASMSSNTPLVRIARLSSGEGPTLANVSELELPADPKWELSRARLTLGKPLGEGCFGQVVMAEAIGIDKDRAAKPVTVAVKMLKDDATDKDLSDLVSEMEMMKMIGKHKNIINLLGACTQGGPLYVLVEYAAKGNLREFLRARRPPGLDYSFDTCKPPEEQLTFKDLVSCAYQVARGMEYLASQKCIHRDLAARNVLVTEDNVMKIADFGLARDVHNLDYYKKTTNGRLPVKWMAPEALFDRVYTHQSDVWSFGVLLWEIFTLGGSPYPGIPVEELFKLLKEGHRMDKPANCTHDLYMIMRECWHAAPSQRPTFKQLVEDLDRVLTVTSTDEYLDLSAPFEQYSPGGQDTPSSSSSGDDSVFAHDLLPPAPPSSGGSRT
Chain of UniProt Q16659 (whole entry, looked up): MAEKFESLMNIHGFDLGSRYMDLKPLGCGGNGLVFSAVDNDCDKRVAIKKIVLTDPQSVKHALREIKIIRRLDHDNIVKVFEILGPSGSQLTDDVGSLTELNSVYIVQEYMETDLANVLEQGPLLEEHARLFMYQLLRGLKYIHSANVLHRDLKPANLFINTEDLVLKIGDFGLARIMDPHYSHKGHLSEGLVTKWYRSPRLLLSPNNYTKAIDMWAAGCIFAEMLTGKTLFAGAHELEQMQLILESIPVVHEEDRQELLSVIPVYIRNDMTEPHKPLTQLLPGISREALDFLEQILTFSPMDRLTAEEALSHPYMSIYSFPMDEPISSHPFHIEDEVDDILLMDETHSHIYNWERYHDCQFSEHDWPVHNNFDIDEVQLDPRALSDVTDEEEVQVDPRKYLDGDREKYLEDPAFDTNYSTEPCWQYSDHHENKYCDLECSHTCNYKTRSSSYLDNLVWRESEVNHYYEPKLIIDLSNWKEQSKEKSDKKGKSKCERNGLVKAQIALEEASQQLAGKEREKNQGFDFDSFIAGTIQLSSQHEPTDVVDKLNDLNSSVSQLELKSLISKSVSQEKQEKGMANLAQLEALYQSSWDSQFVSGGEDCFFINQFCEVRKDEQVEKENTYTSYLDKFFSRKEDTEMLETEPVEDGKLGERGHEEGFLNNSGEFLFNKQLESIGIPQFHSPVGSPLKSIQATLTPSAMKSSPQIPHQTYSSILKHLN
Chain of UniProt Q9P286 (whole entry, looked up): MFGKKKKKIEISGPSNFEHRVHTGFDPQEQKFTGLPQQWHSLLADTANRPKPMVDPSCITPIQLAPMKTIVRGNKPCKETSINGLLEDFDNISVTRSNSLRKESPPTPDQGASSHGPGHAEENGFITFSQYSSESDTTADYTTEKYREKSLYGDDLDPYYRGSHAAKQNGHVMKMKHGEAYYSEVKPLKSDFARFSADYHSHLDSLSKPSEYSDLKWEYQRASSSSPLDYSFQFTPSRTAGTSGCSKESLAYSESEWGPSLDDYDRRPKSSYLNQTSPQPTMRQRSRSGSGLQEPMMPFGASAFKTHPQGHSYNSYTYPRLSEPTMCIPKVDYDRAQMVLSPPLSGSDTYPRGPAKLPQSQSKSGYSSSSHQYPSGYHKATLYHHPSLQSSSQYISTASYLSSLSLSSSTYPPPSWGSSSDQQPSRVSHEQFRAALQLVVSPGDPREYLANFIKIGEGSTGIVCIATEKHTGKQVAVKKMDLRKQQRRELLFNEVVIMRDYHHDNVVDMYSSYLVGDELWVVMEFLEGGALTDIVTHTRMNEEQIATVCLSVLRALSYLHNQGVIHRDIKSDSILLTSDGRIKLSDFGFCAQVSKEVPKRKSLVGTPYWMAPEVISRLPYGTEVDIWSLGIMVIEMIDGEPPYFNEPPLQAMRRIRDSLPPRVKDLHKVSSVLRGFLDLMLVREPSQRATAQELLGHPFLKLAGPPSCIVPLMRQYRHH

Sample 1
Compound: C=CCc1ccc(O)c(-c2ccc(O)c(CC=C)c2)c1
Effect on: chloride current
ANO1 del476-501/F628A: Anoctamin-1 (ANO1, Homo sapiens, UniProt Q5XXA6, del476-501/F628A)
Chain of UniProt Q5XXA6 (whole entry, unmodified, looked up): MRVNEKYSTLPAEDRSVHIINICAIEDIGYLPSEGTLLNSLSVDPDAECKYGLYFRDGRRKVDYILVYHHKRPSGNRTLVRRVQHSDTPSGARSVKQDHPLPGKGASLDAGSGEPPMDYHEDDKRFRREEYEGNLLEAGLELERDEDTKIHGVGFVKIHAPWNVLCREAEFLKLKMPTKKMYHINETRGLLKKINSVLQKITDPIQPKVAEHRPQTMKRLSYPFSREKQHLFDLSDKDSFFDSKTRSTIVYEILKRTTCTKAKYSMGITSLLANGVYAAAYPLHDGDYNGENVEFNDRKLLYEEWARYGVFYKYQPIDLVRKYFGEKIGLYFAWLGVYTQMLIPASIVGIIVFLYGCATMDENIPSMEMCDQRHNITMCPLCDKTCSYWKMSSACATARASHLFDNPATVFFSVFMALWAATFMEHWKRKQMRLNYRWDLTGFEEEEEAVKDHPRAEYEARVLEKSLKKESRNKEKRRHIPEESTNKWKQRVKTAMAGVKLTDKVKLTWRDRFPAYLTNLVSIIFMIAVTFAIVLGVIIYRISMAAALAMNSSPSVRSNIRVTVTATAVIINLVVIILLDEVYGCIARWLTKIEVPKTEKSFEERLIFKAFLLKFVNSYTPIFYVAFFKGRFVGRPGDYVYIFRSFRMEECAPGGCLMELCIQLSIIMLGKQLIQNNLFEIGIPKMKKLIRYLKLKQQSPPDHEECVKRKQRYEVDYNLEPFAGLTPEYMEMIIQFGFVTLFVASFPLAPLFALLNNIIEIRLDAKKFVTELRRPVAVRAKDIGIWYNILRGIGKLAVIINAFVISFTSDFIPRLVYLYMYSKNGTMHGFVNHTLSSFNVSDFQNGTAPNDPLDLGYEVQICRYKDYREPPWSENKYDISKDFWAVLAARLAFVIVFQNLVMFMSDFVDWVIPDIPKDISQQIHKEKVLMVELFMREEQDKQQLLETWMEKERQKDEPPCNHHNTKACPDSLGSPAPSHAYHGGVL
ANO1 del476-501/R631A: Anoctamin-1 (ANO1, Homo sapiens, UniProt Q5XXA6, del476-501/R631A)
ANO1 del476-501/R541A: Anoctamin-1 (ANO1, Homo sapiens, UniProt Q5XXA6, del476-501/R541A)
It gave -0.152 for normalized current (ANO1 del476-501/F628A; whole-cell voltage clamp; 30 µM, I-V at -40 mV, together with: 4 µM Ca2+).
It gave 0.198 for normalized current (ANO1 del476-501/R631A; inhibitor, whole-cell voltage clamp; 10 µM, R605A mutant).
It gave 0.45 for normalized current (ANO1 del476-501/R631A; inhibitor, whole-cell voltage clamp; 3 µM, R605A mutant).
For ANO1 del476-501/R541A; inside-out patch clamp; 10 µM, membrane voltage 40 mV: normalized current read 0.245.
It gave 0.297 for normalized current (ANO1 del476-501/F628A; whole-cell voltage clamp; 1 µM, I-V at 40 mV, together with: 4 µM Ca2+).
ANO1 del476-501/R541A; inside-out patch clamp; 10 µM, membrane voltage 120 mV — normalized current: 1.
For Anoctamin-1 (ANO1, Homo sapiens, UniProt Q5XXA6, del476-501); whole-cell voltage clamp; 10 µM, wild type, I-V at 40 mV, together with: 4 µM Ca2+: normalized current read 0.114.

Sample 2
SMILES: CC(=O)Nc1c(C(C)=O)c(=O)n(C)c2nc(-c3ccc(Cl)cc3Cl)c(-c3ccc(Cl)cc3)cc12
Tested at: 1 µM
For Tyrosine-protein kinase ABL1, non-phosphorylated (ABL1, Homo sapiens, UniProt P00519, T315I); cell-free assay, competition with immobilised ligand: remaining binding read 89%.
It gave 100% for remaining binding (LIM domain kinase 1 (LIMK1, Homo sapiens, UniProt P53667); cell-free assay, competition with immobilised ligand).
It gave 100% for remaining binding (PRKACA (Homo sapiens, UniProt P17612); cell-free assay, competition with immobilised ligand).
It gave 48% for remaining binding (PIK3C2B (Homo sapiens, UniProt O00750); binding, competition with immobilised ligand).
RET (Homo sapiens, UniProt P07949, V804M); cell-free assay, competition with immobilised ligand — remaining binding: 100%.
ANKK1 (Homo sapiens, UniProt Q8NFD2); cell-free assay, competition with immobilised ligand — remaining binding: 100%.
It gave 100% for remaining binding (MATK (Homo sapiens, UniProt P42679); cell-free assay, competition with immobilised ligand).
The remaining binding was 91% (TEK (Homo sapiens, UniProt Q02763); cell-free assay, competition with immobilised ligand).
The remaining binding was 100% (IGF1R (Homo sapiens, UniProt P08069); cell-free assay, competition with immobilised ligand).
SYK (Homo sapiens, UniProt P43405); cell-free assay, competition with immobilised ligand — remaining binding: 96%.
It gave 100% for remaining binding (FES (Homo sapiens, UniProt P07332); cell-free assay, competition with immobilised ligand).
For EGFR (Homo sapiens, UniProt P00533, G719C); cell-free assay, competition with immobilised ligand: remaining binding read 100%.
The remaining binding was 100% (CSNK2A1 (Homo sapiens, UniProt P68400); cell-free assay, competition with immobilised ligand).
Tyrosine-protein kinase ABL1, phosphorylated (ABL1, Homo sapiens, UniProt P00519, F317I); binding — remaining binding: 94%.
It gave 85% for remaining binding (PIK3CA (Homo sapiens, UniProt P42336, E545A); cell-free assay, competition with immobilised ligand).
LATS1 (Homo sapiens, UniProt O95835); cell-free assay, competition with immobilised ligand — remaining binding: 98%.
PAK5 (Homo sapiens, UniProt Q9P286); cell-free assay, competition with immobilised ligand — remaining binding: 100%.
It gave 83% for remaining binding (CDK11B (Homo sapiens, UniProt P21127); cell-free assay, competition with immobilised ligand).
It gave 100% for remaining binding (MAPK6 (Homo sapiens, UniProt Q16659); cell-free assay, competition with immobilised ligand).
BRAF (Homo sapiens, UniProt P15056, V600E); cell-free assay, competition with immobilised ligand — remaining binding: 100%.
For FLT3 (Homo sapiens, UniProt P36888, N841I); cell-free assay, competition with immobilised ligand: remaining binding read 100%.
It gave 100% for remaining binding (PIP5K1A (Homo sapiens, UniProt Q99755); cell-free assay, competition with immobilised ligand).
The remaining binding was 100% (FLT4 (Homo sapiens, UniProt P35916); cell-free assay, competition with immobilised ligand).
It gave 86% for remaining binding (Ribosomal protein S6 kinase alpha-5, C-terminal kinase domain (RPS6KA5, Homo sapiens, UniProt O75582); cell-free assay, competition with immobilised ligand).
It gave 100% for remaining binding (PRPF4B (Homo sapiens, UniProt Q13523); cell-free assay, competition with immobilised ligand).

Sample 3
Cell line: mouse MPNST tumor cells
Method: high-content nuclear imaging
Item: cell number
Tested at: 10 µM
Time: 12 h
Setting: mean of 2 replicates
Baseline: plate mean
Reading: higher = more cells
`N=C(NC(=O)c1nc(Cl)c(N)nc1N)Nc1ccccc1` has a nuclei count of 2.72 z-score.
For `COc1ccc(CN2C(=O)C(=O)c3cc(OC(F)(F)F)ccc32)cc1`, the nuclei count was -4.77 z-score.
The nuclei count of `Nc1nccc(-c2c(-c3ccc(F)cc3)ncn2C2CCCCC2)n1` is reported as -0.297 z-score.
`CCNC(=O)[C@H]1O[C@@H](n2cnc3c(N)nc(NCCc4ccc(CCC(=O)O)cc4)nc32)[C@H](O)[C@@H]1O` gave a nuclei count of 0.809 z-score.
`Cc1ncc(C[n+]2csc(CCO)c2C)c(N)n1` gave a nuclei count of 1.38 z-score.

Sample 4
Compound: Cc1sc(C(=O)NC2COC2)cc1-n1cc(NC(=O)Nc2c(F)cccc2Cl)cn1
Tested at: 10 µM
SRPK3: SRSF protein kinase 3 (SRPK3, Homo sapiens, UniProt Q9UPE1)
Chain of UniProt Q9UPE1 (whole entry, looked up): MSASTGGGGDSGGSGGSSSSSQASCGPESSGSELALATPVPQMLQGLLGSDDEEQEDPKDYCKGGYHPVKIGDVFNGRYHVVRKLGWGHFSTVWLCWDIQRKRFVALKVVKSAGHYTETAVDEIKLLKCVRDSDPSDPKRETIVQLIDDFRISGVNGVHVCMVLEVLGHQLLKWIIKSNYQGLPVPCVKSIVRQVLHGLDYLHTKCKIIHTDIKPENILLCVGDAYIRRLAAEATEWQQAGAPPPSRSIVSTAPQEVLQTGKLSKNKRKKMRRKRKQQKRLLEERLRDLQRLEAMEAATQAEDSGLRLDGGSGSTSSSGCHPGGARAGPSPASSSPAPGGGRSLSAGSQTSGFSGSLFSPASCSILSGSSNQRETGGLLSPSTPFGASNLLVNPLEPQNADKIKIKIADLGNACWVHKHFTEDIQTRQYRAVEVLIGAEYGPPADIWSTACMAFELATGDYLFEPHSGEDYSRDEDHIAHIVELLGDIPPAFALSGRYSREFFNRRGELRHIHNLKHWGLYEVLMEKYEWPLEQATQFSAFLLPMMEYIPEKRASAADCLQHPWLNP
It gave 82.6% for remaining activity (FLT1 (Homo sapiens, UniProt P17948); enzyme activity; baseline: untreated control).
It gave 101% for remaining activity (BRAF (Homo sapiens, UniProt P15056); enzyme activity; baseline: untreated control).
For PIM1 (Homo sapiens, UniProt P11309); enzyme activity; baseline: untreated control: remaining activity read 93.1%.
The remaining activity was 98.9% (SRPK3; kinase activity, kinase panel profiling).
The remaining activity was 89.6% (MAP2K5 (Homo sapiens, UniProt Q13163); enzyme activity; baseline: untreated control).
It gave 136% for remaining activity (FGFR3 (Homo sapiens, UniProt P22607); enzyme activity; baseline: untreated control).
The remaining activity was 108% (GRK4 (Homo sapiens, UniProt P32298); enzyme activity; baseline: untreated control).
For Cyclin-dependent kinase 4, with cyclin D1 (CDK4, Homo sapiens, UniProt P11802); enzyme activity; baseline: untreated control: remaining activity read 72.9%.
The remaining activity was 92.7% (SRPK3; enzyme activity; baseline: untreated control).

Sample 5
Target: Beta-1 adrenergic receptor (ADRB1, Homo sapiens, UniProt P08588)
Chain of UniProt P08588 (whole entry, looked up): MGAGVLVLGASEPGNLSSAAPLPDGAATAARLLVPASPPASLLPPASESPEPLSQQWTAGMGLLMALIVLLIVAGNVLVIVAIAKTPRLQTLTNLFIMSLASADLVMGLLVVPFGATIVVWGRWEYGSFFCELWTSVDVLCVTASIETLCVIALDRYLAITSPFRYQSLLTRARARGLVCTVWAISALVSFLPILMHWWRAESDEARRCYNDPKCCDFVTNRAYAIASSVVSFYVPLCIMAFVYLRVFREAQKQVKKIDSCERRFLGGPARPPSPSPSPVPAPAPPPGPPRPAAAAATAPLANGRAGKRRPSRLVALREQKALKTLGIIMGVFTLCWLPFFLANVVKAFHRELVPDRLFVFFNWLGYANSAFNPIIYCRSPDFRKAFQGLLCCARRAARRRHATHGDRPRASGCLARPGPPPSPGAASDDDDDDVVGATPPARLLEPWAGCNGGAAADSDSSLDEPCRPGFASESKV
Mode: antagonist
The IC50 of `COc1ccccc1C(=O)Nc1ccc(C(O)[C@H]2COCC(=O)N2)cc1` (some centres unmarked) is reported as at least 100 µM.
The IC50 of `c1ccc2nc(N3CCCC(COc4ccncc4)C3)ccc2c1` (centres unmarked) is reported as at least 100 µM.
The IC50 of `CN1Cc2ccc(N3CCOCC3)nc2C(C)(C(=O)NCCCn2ccnc2)C1` (centres unmarked) is reported as at least 100 µM.
With `Cc1nc2c(c(N[C@@H]3COCC[C@H]3OCc3ccccn3)n1)CCC2` the IC50 was at least 100 µM.
The IC50 of `Cc1noc2c(-c3cnn(C)c3)cc(-c3cccs3)nc12` is reported as at least 100 µM.
For `O=C(NCCc1ccc(O)c(O)c1)C12CC3CC(CC(C3)C1)C2`, the IC50 was at least 100 µM.
For `N#CSCC(=O)c1ccc(O)c(O)c1`, the IC50 was at least 100 µM.

A few entries again (sample 2):
It gave 48% for remaining binding (PIK3C2B (Homo sapiens, UniProt O00750); binding, competition with immobilised ligand).
RET (Homo sapiens, UniProt P07949, V804M); cell-free assay, competition with immobilised ligand — remaining binding: 100%.
ANKK1 (Homo sapiens, UniProt Q8NFD2); cell-free assay, competition with immobilised ligand — remaining binding: 100%.
It gave 100% for remaining binding (MATK (Homo sapiens, UniProt P42679); cell-free assay, competition with immobilised ligand).
The remaining binding was 91% (TEK (Homo sapiens, UniProt Q02763); cell-free assay, competition with immobilised ligand).
